Assay results of several laboratories.
Each line is one published result; not all experiments were run side by side. Numbers after ± are the reported error.
Sequence of UniProt P42338 (whole entry, looked up): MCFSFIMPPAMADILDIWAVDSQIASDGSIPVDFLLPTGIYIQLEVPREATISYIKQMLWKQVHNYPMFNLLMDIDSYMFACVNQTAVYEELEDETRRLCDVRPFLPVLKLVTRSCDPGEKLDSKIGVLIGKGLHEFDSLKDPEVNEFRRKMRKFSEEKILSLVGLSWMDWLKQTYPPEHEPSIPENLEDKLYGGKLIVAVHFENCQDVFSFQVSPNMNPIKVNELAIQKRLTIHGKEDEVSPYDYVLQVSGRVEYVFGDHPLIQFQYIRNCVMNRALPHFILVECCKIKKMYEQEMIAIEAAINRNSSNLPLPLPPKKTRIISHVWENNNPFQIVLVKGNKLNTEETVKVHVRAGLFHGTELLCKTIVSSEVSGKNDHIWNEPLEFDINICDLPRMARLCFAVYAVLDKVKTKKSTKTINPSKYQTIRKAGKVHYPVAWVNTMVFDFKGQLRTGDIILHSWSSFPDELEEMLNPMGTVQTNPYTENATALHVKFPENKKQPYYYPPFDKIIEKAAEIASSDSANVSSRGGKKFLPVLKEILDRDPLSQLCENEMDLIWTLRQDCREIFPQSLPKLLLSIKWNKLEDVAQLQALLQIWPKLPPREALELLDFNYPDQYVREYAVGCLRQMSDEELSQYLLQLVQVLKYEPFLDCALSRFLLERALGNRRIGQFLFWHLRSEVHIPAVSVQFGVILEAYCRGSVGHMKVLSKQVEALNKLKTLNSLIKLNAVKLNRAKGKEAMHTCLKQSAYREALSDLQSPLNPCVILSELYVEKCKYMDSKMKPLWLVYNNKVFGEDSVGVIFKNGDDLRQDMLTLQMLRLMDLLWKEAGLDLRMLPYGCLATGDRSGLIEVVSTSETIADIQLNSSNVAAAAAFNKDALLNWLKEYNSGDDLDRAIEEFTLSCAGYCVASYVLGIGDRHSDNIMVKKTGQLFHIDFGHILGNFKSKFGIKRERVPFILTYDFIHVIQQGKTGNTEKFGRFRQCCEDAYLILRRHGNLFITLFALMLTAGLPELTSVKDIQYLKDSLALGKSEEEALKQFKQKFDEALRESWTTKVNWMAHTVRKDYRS
Sequence of UniProt P11387 (whole entry, looked up): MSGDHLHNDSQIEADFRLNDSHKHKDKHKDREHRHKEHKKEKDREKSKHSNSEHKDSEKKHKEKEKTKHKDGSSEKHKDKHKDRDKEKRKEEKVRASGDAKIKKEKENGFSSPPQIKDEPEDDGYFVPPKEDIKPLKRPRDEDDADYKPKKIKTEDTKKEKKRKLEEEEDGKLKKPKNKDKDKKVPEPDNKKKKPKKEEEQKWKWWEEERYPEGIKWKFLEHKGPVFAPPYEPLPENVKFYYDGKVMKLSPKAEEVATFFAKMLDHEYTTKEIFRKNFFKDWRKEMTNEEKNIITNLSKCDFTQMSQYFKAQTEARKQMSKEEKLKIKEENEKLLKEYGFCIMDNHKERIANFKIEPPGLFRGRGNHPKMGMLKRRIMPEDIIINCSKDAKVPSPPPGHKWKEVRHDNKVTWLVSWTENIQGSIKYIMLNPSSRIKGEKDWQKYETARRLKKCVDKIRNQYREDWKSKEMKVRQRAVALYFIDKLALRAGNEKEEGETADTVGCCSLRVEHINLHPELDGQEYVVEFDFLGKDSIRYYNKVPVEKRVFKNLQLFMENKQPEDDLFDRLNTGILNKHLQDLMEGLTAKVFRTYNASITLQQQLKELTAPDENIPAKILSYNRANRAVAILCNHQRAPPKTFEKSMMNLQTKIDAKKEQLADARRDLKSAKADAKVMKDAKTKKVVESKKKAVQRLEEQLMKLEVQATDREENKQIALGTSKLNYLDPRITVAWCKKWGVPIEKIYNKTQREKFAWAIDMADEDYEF

SMILES	tested on	assay	system	conditions	scale	endpoint	value
Oc1c(Cl)cc(Cl)c2cccnc12	Corynebacterium diphtheriae	agar dilution	NCTC 10356			MIC	37.4 µM
CNCc1ccc2c(c1)N(C(=O)OCc1c(F)c(F)c(F)c(F)c1F)[C@H](CNC(=N)N)[C@H]2NC(=O)C(=O)Nc1ccc(Cl)c(F)c1	Human immunodeficiency virus 1	viral infection, Env pseudovirus	TZM-bl, ZM53M.PB12 clade C			IC50	3.61 µM
C[C@H](Nc1ncnc(N)c1C#N)c1c(-c2ccccc2)[nH]c2c(Cl)cccc2c1=O	PIK3CB (Homo sapiens, UniProt P42338)	AKT phosphorylation	PC-3	with: LPA	relative to: IC50 PIK3CB over PI3Kδ	selectivity ratio	137 fold
CC[C@H](C)[C@H](NC(=O)[C@H](C)NC(=O)[C@@H](NC(=O)[C@@H](NC(=O)[C@H](CC(C)C)NC(=O)[C@H](CCCCN)NC(=O)[C@@H](N)CCCCN)[C@@H](C)CC)[C@@H](C)O)C(=O)N[C@@H](CC(C)C)C(=O)N[C@@H](CCCCN)C(=O)N[C@@H](CCCCN)C(=O)N[C@H](C(=O)N[C@@H](CCCNC(=N)N)C(=O)N[C@@H](CCC(=O)O)C(=O)N[C@@H](CCCCN)C(=O)N[C@@H](CCCCN)C(=O)N[C@@H](CCCCN)C(=O)N[C@@H](CCC(=O)O)C(=O)N[C@@H](CS)C(=O)N[C@@H](CC(C)C)C(=O)N[C@H](C(=O)O)C(C)C)[C@@H](C)O	TTX-sensitive sodium channel	open-channel blocker, kinetic model fit	mouse hippocampal CA3 neurons	200 µM intracellular, membrane potential -30 mV		unblocking rate constant	2460 s⁻¹
C1=[N+]2CCC[N+]3=Cc4ccc5[n]4[Au-]23[n]2c1ccc2-c1nc2ccccc2nc1-5.F[P-](F)(F)(F)(F)F	DNA topoisomerase 1 (TOP1, Homo sapiens, UniProt P11387)					switch to catalytic inhibition concentration	1 to 10 µM
CO[C@H]1O[C@H](COC(c2ccccc2)(c2ccccc2)c2ccccc2)[C@@H](OS(=O)(=O)c2ccccc2)[C@H](OS(=O)(=O)c2ccccc2)[C@H]1OS(=O)(=O)c1ccccc1	Aspergillus niger	mycelial growth, poisoned food technique		20 µg/µL, DMSO		inhibition	67.92 ± 0.46%
N#Cc1ccc2cccc(O)c2n1	Corynebacterium diphtheriae	agar dilution	NCTC 10356			MIC	> 1500 µM
COc1cc(O)cc(O)c1C(=O)/C=C/c1ccccc1	Human immunodeficiency virus 1	viral replication, inhibitor, luciferase	MT2	48 h		IC50	70.6 µM
CCCOC(=O)N1c2cc(CNC)ccc2[C@H](NC(=O)C(=O)Nc2ccc(Cl)c(F)c2)[C@H]1CNC(=N)N	Human immunodeficiency virus 1	viral infection, Env pseudovirus	TZM-bl, 6244_13_B5_4576 clade B T/F			IC80	1.65 µM
F[P-](F)(F)(F)(F)F.OC(Cn1cncn1)(Cn1cc(-[c-]2cccc2)nn1)c1ccc(F)cc1F.[Co+3].c1cc[cH-]c1 (racemic)	Brugia pahangi	motility, Worminator	adult female	50 µM, 1 d		inhibition	20%
C=C1C[C@](OC)([C@H](O)C(=O)NC[C@@H]2C[C@@H](OC)C(C)(C)[C@@H](C[C@@H](COC)OC)O2)O[C@H](C)[C@@H]1C	HEK-293T	cell viability, sulforhodamine B		48 h, 37 °C, without H2O2		IC50	0.0075 ± 0.0003 µM
O=[N+]([O-])c1cccc(S(=O)(=O)NC[C@@H](O)[C@@H]2CCc3cc(F)ccc3O2)c1	Aspergillus flavus	poison plate technique				MIC	15.2 ± 0.8 µg/mL

Excerpt of the above:
SMILES	tested on	assay	system	conditions	scale	endpoint	value
C1=[N+]2CCC[N+]3=Cc4ccc5[n]4[Au-]23[n]2c1ccc2-c1nc2ccccc2nc1-5.F[P-](F)(F)(F)(F)F	DNA topoisomerase 1 (TOP1, Homo sapiens, UniProt P11387)					switch to catalytic inhibition concentration	1 to 10 µM
CO[C@H]1O[C@H](COC(c2ccccc2)(c2ccccc2)c2ccccc2)[C@@H](OS(=O)(=O)c2ccccc2)[C@H](OS(=O)(=O)c2ccccc2)[C@H]1OS(=O)(=O)c1ccccc1	Aspergillus niger	mycelial growth, poisoned food technique		20 µg/µL, DMSO		inhibition	67.92 ± 0.46%
